# Measurements pooled from the literature.
# Every numbered part comes from another study and shows a few of its results, in no order.

# Sample 1
# Target: RING finger protein unkempt homolog, zinc fingers 1-6, GST-SBP tag (UNK, Homo sapiens, UniProt Q9C0B0, residues 30-357)
# Chain of UniProt Q9C0B0 (30-357, looked up): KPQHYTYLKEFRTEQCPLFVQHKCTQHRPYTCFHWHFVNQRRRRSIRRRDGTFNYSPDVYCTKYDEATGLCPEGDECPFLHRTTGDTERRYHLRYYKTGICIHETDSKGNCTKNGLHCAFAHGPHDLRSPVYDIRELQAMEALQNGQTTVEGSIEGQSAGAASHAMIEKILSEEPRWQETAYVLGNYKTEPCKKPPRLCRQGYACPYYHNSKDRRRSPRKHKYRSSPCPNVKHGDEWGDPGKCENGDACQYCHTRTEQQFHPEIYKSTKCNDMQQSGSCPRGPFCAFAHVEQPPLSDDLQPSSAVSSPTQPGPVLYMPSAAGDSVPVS
# Technique: RNA Bind-n-Seq
# Molecule type: RNA
# Medium: in vitro
# Concentration: not given
# Setting: RNA with constant flanks, human and mouse sites, ends assumed
# Baseline: input RNA pool
# Reading: higher = stronger binding
# All sequences stand within: GGGAGUUCUACAGUCCGACGAUC … CAACAGAGGAUUGAGCAUCA
Strand,bound/input enrichment [ratio]
ACGCUGCCCUCGGACAAGCUGAGCAAGAUUCAGACCCUCAAGCUGGCGGCCAGGUACAUCGACUUCCUCUACCAGGUCCUCCAGAGCGACGAGCUGGACUCCAAGAUGGCAAGCUGCAGC,0.133
CUUGGUGGCGAAUGUGUUGCGGGUCCUGUUGGGCUGCUUUCUGUAUUGUCUCCUAACCCUCUAGUUUUAAUUGGACACUUCUUUGCUGUUGCAAUCUAUGCCGUGUAUUUUUGCUUUAAG,3.93
CGCCGCCGCCCGCACGCCCGCUGCCCGUCGCCCGGUUCAUCCAUGAGCUCAGAUUUCCCACAUUAUAACUUCAGGAUGCCUAAUAUUGGAUUCCAGAAUCUGCCUCUCAACAUCUAUAUC,0.16
UGCGCCUUUUCUUCCUCUCUUUUUUUUCCCCCUUUCUUUCCCACCCCACCCCCUCCCAAUAAUAGAUUUACUUUACAAUCAUCCACACUGUGGUCUGUGGAUCUUUAAUAUAUAUAUAUA,3.25
GCAGGAUUUGACUCAUCAAAAAACAUCUUUCUUGGGGAGAAGGCUGCCAAAUGGAAGACAUCAGAUGGACAGAUGGAUGGCUUGACCACUAAUGGUGUUCUUGUGAUGCAUCCACGCAAU,0.122
AUGGCUCUCCUGGUGCUCGGUCUGGUGAGCUGUACCUUCUUUCUGGCAGUGAAUGGUCUGUAUUCCUCUAGUGAUGAUGUGAUCGAAUUAACUCCAUCGAAUUUCAACCGAGAAGUUAUU,0.333
GGCGGCGCCCGCAGCUCCUCACCGGUACACACGCUGCCACUCAACAACUACACACUGUCACUGCCAGCCUCACUGUCACACAGCCGAACAGGCGCUCACAUCAUUCAGCCAGACACUGCU,0.293
ACUCUCUUCCCCCCUUUUUGAGUUGUUGGGCAGUUCUUAUUUCUUGCUUGCUUUUCGGUUUCUUGCUGUUGUUGGGUGUUUUUUUUGUUUGUUUGUUUGUUUGUUUGUUCUCGCUUUUUU,1.96
ACUCAGCACCUCAGUGUUGAAACCUCAUACCUUCAGCAUGAAAGUGGCCGGAUCUCCACCAAGUUUGAAUUUAUCCCCAGCCCUGGAAACCACUUCAUUUGGUAUCAGGGAAAAUGGAUC,0.134
AAAGUCCACAGUGCAGUGCCUGUCCAGUGUUCAGUGGAGUUUCUGGCACUGGUACAUCUCAAUAGGAUUUCUUUUUAAGAGUACUGUACUGUCUCUUGAAGCCAGUCAGGGACUUUUUAA,0.255
UUGGCUACACUUUUCAGUGCAUUGACUGGUUUGCCAUGGAGUCUUUAUAAUACUUUUGUGAUAGAAGAAAAACAUGGCUUCAAUCAACAGACUUUGGGGUUCUUCAUGAAAGAUGCAAUC,0.112

# Sample 2
# Target: Ras GTPase-activating protein-binding protein 1, full length (G3BP1, Homo sapiens, UniProt Q13283)
# Chain of UniProt Q13283 (whole entry, looked up): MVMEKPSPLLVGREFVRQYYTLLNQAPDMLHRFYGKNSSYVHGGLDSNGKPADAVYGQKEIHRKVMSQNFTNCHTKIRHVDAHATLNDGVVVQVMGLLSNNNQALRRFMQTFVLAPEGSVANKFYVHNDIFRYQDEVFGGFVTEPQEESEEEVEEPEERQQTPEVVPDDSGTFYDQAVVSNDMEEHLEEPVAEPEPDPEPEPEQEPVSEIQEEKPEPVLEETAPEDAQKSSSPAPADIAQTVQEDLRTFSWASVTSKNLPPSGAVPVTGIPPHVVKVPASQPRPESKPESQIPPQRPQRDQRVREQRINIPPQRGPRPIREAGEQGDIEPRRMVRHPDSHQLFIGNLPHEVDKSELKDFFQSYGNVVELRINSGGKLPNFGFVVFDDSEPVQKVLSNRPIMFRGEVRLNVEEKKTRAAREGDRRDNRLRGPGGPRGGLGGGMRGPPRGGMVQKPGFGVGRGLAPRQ
# Technique: RNA Bind-n-Seq
# Molecule type: RNA
# Medium: in vitro
# Concentration: 200 nM
# Setting: whole 134-nt RNA, ends assumed
# With: 150 mM LiCl
# Baseline: input library
# Reading: higher = stronger binding
# Each molecule: 7-deaza-guanosine replaces G
# All sequences stand within: GGGAGUUCUACAGUCCGACGAUC … UGGAAUUCUCGGGUGUCAAGG
Strand,log2 enrichment
AAGUCCUGUGCUACACAUCGUAUGUACCGAAUCGGGGCCCGGGCCCGGGGCCCGGGAAAGUAUUAUGUUACGCCGUUCGGAUCUGCACUU,-0.837
UCAAGUCCUGUGCUACACAUCGUAUGUACCGAAUCGGAAAAAGGUGGAAAAAGGAAAGUAUUAUGUUACGCCGUUCGGAUCUGCACUUCC,-0.285
ACAGAGGGUUUGGUGGACGUUAUUCUCUAUCAUCAACCCGAUGACAAAAAGAAGAAUCGGGGGUUCUGCUUCCUUGAAUAUGAGGAUCAC,-2.5
CAAGUCCUGUGCUACACAUCGUAUGUACCGAAUCGGUUUUUGGAGGUUUUUUUGGAAAGUAUUAUGUUACGCCGUUCGGAUCUGCACUUC,-0.332
ACCAUGCAGGUGGGCAUCUUUGGGAAGUGGGGCAAGGGGGGGAUAGGGAGGGGGGUAACACUUUGGGAACAGGUGGUCCCAGGUGGUUUC,0.436
UGGCCCUGGUGGCAUGCGGGGAGGAAGAGGUGGCCUCAUGGAUCGUGGUGGUCCAGGUGGAAUGUUCAGAGGUGGCCGUGGUGGAGACAG,0.135
UAACUUUAGAGGAGGAUCUGAUGGAUAUGGUAGUGGACGUGGAUUUGGGGAUGGCUAUAAUGGGUAUGGAGGAGGACCUGGAGGUGGCAA,0.107
GCAGGAAGUAAAAACAAAUGGAAAUGCUUCGGAUAGUGGCAGCGGUGGGGGUUGCUAAGGAAAGGGUGGGAUGGGAGUGGGUAAAGAGUU,0.0206
CUGUGCUACACAUCGUAUGUACCGAAUCGGGGUUUUUUUGGUUUUUUUGGGGUUUUUUUGGAAAGUAUUAUGUUACGCCGUUCGGAUCUG,1.13
AAGUCCUGUGCUACACAUCGUAUGUACCGAAUCGGAAAAAGGAAAAAAAGGUUUGGAAAGUAUUAUGUUACGCCGUUCGGAUCUGCACUU,-2.81
AGUCCUGUGCUACACAUCGUAUGUACCGAAUCGGGUUUUUGGGAGGGAAAAAAAGGGAAAGUAUUAUGUUACGCCGUUCGGAUCUGCACU,-0.768

# Sample 3
# Target: Histone acetyltransferase KAT6A, both winged helices, GST fusion (KAT6A, Homo sapiens, UniProt Q92794, residues 1-181)
# Technique: protein binding microarray
# Molecule type: double-stranded DNA, one strand shown
# Medium: in vitro
# Concentration: not given
# Setting: 8-mer, flanks averaged, mean of 2 arrays, mostly near background
# Baseline: not given
# Reading: higher = stronger binding
# Target sequence (chain): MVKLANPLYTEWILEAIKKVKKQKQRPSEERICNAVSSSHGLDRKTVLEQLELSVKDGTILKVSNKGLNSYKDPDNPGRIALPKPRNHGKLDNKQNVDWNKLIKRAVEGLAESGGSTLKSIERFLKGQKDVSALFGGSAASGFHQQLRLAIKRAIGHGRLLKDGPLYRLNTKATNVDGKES
Strand,E-score
TCTCTCAA,-0.128
CTTCTTCC,-0.11
GATGAAAC,-0.131
CTCATCAC,-0.178
ACGGTACT,0.183
AGACTCTG,-0.286
CGAGCGTC,0.146
AATCAACT,-0.0424
ACATTAGT,-0.158
ATCGGTAA,0.0837
AGTCCTAA,0.061
AAGAGTAT,-0.182
ACCCGAAG,0.0148
CCCGGTTC,0.07
CCTGTTCA,-0.232
TCTGACAA,-0.0853

# Sample 4
# Target: RNA binding protein fox-1 homolog 2, RRM domain, GST-SBP tag (RBFOX2, Homo sapiens, UniProt O43251-10, residues 100-194)
# Technique: RNA Bind-n-Seq
# Molecule type: RNA
# Medium: in vitro
# Concentration: 365 nM
# Setting: natural RNA segment, single round, ends assumed
# Baseline: no-protein control
# Reading: higher = stronger binding
# All sequences stand within: GGGAGUUCUACAGUCCGACGAUC … UGGAAUUCUCGGGUGCCAA
# Construct (chain): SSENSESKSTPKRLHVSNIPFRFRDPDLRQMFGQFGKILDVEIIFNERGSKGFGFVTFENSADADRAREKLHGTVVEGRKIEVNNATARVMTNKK
Strand,RBNS enrichment (R)
AGGGGCUCUGGGCAUGCUGUGCCUGAGCUCCCUCAAAUGCCCAACCUAAGGCUUUGUGGGUAAGAUUACUUGCCACCUGCUUACUCUUAUGAAAUAGUCCAGUGCUCAUA,0.366
AACCCCACACUUGAUGCUCUGUCCUCUCCACACAGGCCUCUUGCUCCUAACAGCUCAGCCCUGGCCUUUUCUCACUACUGAUAGCAUCAUGUAAAUGCUCCAUGUUCCUG,0.515
UUAUGCUUGUUGUACCUUUAAAGUAUGCCUUAUGUACAUUCCUUUCUCCUUUUCCUGCCUCCUCCCUAAAUAGCUGCCUUCUAGUGCUGUAGCAAGGGAGCCCUACUGCA,1.84
UGAACUAUGUUUUGGAAAGUUACAACUACUUUUACAUUAAGGAUGAGAAACUGGAGUGUUUUUGAUUUCAUGGUAAAAGUUUGUGUGUUUUACAUUUGAAUGUUCACAGU,0.626
CUCCAGGCUCCUCCUCCCCCUGGCAGGCCCAGCAACAUGUGCCCCAGAUCUGGAAGGGCCUCCCUCUCUGCCAGUGUUUGGGUGGGUGUCAUGGGUGUCCCCACCCACUC,0.509
UUACUUCUAAAGAAGUUAGCUUGAACUGAGGAGUAAAAGUGUGUACAUAUAUAAUAUACCCUUACAUUAUGUAUGAGGGAUUUUUUUAAAUUAUAUUGAAAUGCUGCCCU,0.39
CCGUUUAACCUCCGAGAUGAGCUGCUCAGACUCUACAGCAUGACGACUACAAUUUCUUUUCAUAAAACUUCUUCUCUUCUUGGAAUUAUUAAUUCCUAUCUGCUUCCUAG,3.22
CCCUACAAUAAGAUUGUUUUAUCUGUACAUUUUUUCAGAUAUUUAACUGUAUAAAAUGUUCAUUUUACACAAUAUUUAAUUAAAGUAUUUCUUGUCUGUGAAUUUCACUU,0.472
CACUUAAACUAAAGGCUAAGAAUAUAGGCUUGAUGGGAAAUUGAAGGUAGGCUGAGUAUUGGGAAUCCAAAUUGAAUUUUGAUUCUCCUUGGCAGUGAACUACUUUGAAG,0.251
GCCCCACUGCGCUGCUGACCUUCCUGCAGUUCCAGACACCUCCCACAAUAAAGAGCUCCUCCUCUGUAGCCGCUCUGCCAUCUCUGUGUACAAGGGUGCUGCAGCCAGUG,0.457
GGGGCCCUGACUCGUCACACUUCCCUUUCCUAAGCCUCUGAGGGUGGAGAUUCCCCUAGGAGCGCUUGGCCAGCUGGGAAGGCAGCGCCCAGCUGCACUUGUUGUUGAUA,0.4
UUUGUGAUGUCAUAGUGCAAACUGCAGUGACCGGUAAAAUGACCUGACAUGUAACCGUUUUCAGGGAAUGCAGAGGGUGUUAACUAAUAGACAAAACCUUUAUCCCGCGU,0.387

# Sample 5
# Target: Sal-like protein 4, full length isoform A (SALL4, Homo sapiens, UniProt Q9UJQ4, residues 1-1053)
# Chain of UniProt Q9UJQ4 (whole entry, looked up): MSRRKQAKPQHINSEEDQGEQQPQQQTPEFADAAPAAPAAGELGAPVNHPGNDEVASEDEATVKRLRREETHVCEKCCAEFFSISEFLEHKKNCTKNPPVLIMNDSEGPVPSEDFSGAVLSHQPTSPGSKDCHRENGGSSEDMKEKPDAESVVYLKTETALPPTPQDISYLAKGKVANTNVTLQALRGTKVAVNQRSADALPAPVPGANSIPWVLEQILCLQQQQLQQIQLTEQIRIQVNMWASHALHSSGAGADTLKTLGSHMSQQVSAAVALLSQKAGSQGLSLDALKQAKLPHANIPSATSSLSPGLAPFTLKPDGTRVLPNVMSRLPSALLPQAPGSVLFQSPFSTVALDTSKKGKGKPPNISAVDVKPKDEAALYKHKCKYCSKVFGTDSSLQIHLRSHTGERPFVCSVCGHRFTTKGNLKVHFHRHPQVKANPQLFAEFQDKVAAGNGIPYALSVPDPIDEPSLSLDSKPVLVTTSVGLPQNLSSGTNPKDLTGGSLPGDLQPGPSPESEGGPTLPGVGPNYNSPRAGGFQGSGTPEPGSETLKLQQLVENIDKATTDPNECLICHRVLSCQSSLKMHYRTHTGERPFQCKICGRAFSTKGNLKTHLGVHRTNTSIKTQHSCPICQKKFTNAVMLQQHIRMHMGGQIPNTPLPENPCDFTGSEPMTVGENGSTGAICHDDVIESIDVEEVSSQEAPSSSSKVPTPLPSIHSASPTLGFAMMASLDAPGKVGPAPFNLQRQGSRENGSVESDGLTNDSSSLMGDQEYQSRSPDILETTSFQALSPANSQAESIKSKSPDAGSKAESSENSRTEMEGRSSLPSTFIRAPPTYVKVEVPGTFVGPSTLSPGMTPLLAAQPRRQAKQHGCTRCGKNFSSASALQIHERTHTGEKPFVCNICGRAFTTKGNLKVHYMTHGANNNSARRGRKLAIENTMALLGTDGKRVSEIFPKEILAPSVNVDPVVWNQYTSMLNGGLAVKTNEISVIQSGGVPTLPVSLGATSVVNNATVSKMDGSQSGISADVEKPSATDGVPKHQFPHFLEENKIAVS
# Technique: universal PBM
# Molecule type: double-stranded DNA, one strand shown
# Medium: in vitro
# Concentration: 600 nM
# Setting: 8-mer, flanks averaged, mean of replicates
# Reading: higher = stronger binding
Strand,E-score
GTGAGCCA,-0.0651
CCCATCTC,-0.245
TCCCAACA,-0.0103
GTATACTA,0.142
ACCTCACA,-0.1
AAGTACGG,-0.108
ACGTCGAC,-0.0583
CGGCTTAG,-0.194
TGGATGAA,0.053
AGACCTCG,-0.175
AGAACCGA,-0.167
TACAACCA,0.16
AACCGCGC,-0.283
ATGAAGAC,0.146
GAATGAGA,-0.0347
TCAAAAAA,0.266
CCTCCATA,0.0709

# A few entries again (sample 5):
Strand,E-score
CCCATCTC,-0.245
TCCCAACA,-0.0103
GTATACTA,0.142
ACCTCACA,-0.1
AAGTACGG,-0.108
ACGTCGAC,-0.0583
CGGCTTAG,-0.194
TGGATGAA,0.053
AGACCTCG,-0.175
